Assay results from different studies.
Numbered parts are unrelated; each lists some results of a single study.

Study 1
Target: Histone acetyltransferase KAT6A, both winged helices, GST fusion (KAT6A, Homo sapiens, UniProt Q92794, residues 1-181)
Method: protein binding microarray
Form: double-stranded DNA, one strand shown
Medium: in vitro
Tested at: not given
Setting: 8-mer, flanks averaged, mean of 2 arrays, mostly near background
Relative to: not given
Reading: higher = stronger binding
Endpoint: E-score
Residues (chain): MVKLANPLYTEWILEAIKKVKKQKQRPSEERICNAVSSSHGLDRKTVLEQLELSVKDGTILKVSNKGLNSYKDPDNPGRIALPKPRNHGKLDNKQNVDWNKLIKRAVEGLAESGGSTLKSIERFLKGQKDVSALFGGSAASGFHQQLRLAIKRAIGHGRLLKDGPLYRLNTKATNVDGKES
GGATCGCC: 0.0155
ACGGCTCA: 0.185
AACACGTT: -0.0576
CGTCTGTA: 0.0212
AAATTTGT: -0.0947

Study 2
Target: Interferon regulatory factor 7, full length, phosphomimetic (IRF7, Homo sapiens, UniProt Q92985, residues 1-503, S471D/S472D/S475D/S476D/S477D/S483D/S484D/S487D)
Method: protein-binding microarray
Form: double-stranded DNA, one strand shown
Medium: in vitro
Tested at: 2200 nM top
Setting: 60-bp whole probe
With: salmon DNA 0.4 mg/ml
Relative to: random background probes
Reading: higher = stronger binding
Endpoint: fitted relative affinity
Target sequence (chain): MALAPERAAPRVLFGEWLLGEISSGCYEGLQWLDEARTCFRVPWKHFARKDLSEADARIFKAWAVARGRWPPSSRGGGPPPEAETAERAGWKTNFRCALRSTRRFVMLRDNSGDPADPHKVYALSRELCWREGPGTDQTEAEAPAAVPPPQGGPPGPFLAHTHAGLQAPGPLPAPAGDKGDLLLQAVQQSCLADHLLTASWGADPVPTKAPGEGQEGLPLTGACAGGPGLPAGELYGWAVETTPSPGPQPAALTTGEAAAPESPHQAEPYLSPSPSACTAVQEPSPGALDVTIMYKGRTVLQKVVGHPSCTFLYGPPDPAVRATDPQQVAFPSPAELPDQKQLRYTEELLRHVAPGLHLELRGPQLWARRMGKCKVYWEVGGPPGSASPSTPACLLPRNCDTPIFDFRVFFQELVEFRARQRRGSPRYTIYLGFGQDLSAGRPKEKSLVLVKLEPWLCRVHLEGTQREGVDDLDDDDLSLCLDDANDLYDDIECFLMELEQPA
GCCTAGCACTCAGCTTTGCCTTCAGCACTGTGCTAGGTCTTGATTCGCTTGACGCTGCTG: 1.08 z-score
GCCTAGCACGACGGTTTCGACACTGTGGACGTGCTAGTCTTGATTCGCTTGACGCTGCTG: 2.64 z-score
GCCTAGCACTCAATTATCCTTGTCCCACTGTGCTAGGTCTTGATTCGCTTGACGCTGCTG: 1.41 z-score
GCCTAGCACTTAGGTATCTACTATCGGTTAGTGCTAGTCTTGATTCGCTTGACGCTGCTG: 0.56 z-score

Study 3
Target: Prothrombin, mature alpha-thrombin (F2, Homo sapiens, UniProt P00734)
Method: aptamer microarray, sandwich
Form: DNA with 2'F-ANA
Medium: in vitro
Tested at: 200 nM
Setting: whole 15-mer aptamer, many near background
With: Cy3 exosite-II aptamer, 400 nM
Reading: higher = stronger binding
Endpoint: mean fluorescence intensity
Sequence: GGTTGGTGTGGTTGG
2'F-ANA at 4 5 6 8 10 13 14 15: 46.2 a.u.
2'F-ANA at 2 4 5 7 9 10 11 13: 56.7 a.u.
2'F-ANA at 1 2 5 7 8 10 12 15: 49.4 a.u.
2'F-ANA at 2 3 6 9 10 13 14: 251 a.u.
2'F-ANA at 1 8 9 12 13 14 15: 75.5 a.u.
2'F-ANA at 2 4 5 6 7 8 10 12 14: 46.1 a.u.
2'F-ANA at 4 8 11 14: 107 a.u.

Mixed results
PhoQ, residues 284 288 289 292 302 303 GLASVI
fold induction (PhoP, residues 12 14 15 18 19 NMSFL (Escherichia coli, UniProt P23836); Sort-seq, refers to: YFP reporter; E. coli; PhoQ-PhoP variant library, with: 10 µM Mg2+; relative to: high Mg2+ state, higher = stronger signaling): 13.3

For quick reference, copied from above (study 3):
2'F-ANA at 4 8 11 14: 107 a.u.
2'F-ANA at 1 2 5 7 8 10 12 15: 49.4 a.u.
